Measurements gathered from unrelated publications.
Protocols differ between the studies behind these lines.

C=CC(=O)N1CC[C@H](n2nc(C#Cc3cc(OC)cc(OC)c3)c3c(N)ncnc32)C1: “patients with ADR” 8.3% (refers to: blood creatinine increased; hyperphosphataemia patients; oral, once daily, any grade, lanthanum carbonate users).
Under “patients with TEAE”, C=CCNc1c(O)cc2c(O)c1C[C@@H](C)C[C@H](OC)[C@H](O)[C@@H](C)/C=C(\C)[C@H](OC(N)=O)[C@@H](OC)/C=C\C=C(/C)C(=O)N2 is recorded as 74% (refers to: Fatigue; unresectable or metastatic GIST/STS; intravenous, dose not given, all doses).
For CC(=O)c1c(C)c2cnc(Nc3ccc(C4CCN(CCS(C)(=O)=O)CC4)cn3)nc2n(C2CCCC2)c1=O, “patients with AST increased” read 30.9% (HR+/HER2- advanced breast cancer patients; oral, dose not given, all grades,, total).
Under “patients with back pain”, C[C@@H]1OC(=O)NN=C1c1ccc(-c2ccc(F)cc2)c(C(F)(F)F)c1 is recorded as 20% (patients, phase I trial; oral, dose not given, all arms, worst grade 1).
For O=C1Nc2cc3[nH]nc(-c4ccncc4)c3cc2CN1Cc1ccccc1, “patients with fatigue” read 0% (CTCAE v4.03; advanced solid tumour patients; intravenous, 1.8 mg/kg, schedules 1/2).
COc1cc2c(Oc3ccc4[nH]c(C)cc4c3F)ccnc2cc1OCC1(N)CC1: “patients with grade 3 AST elevation” 0% (paediatric refractory sarcoma patients; 8 mg/kg).
CCNCCCNC/C=C\CNCCCNCC — result for “patients with drug-related TEAEs”: 56.5% (advanced refractory solid tumour patients; intravenous, dose not given, General disorders).
Under “patients with adverse event”, COc1nnc2ccc(N3CCC(c4ccc(OCCN5CCN(C)C(=O)[C@H]5C)cc4)CC3)nn12 is recorded as 5.9% (refers to: fatigue; patients with solid tumours or lymphoma; oral, dose not given, grade at least 3, treatment-emergent).
For CN1CC[C@@H](c2c(O)cc(O)c3c(=O)cc(-c4ccc(C(F)(F)F)cc4Cl)oc23)[C@@H]1CO, “patients with adverse event” read 33.3% (refers to: Anemia; AML; oral, 100 mg, intermittent dosing).
Nc1nc2cc(-c3ccc4ncc(C(=O)N5CCOCC5)n4c3)ccc2o1: “patients with adverse events” 4% (refers to: Vomiting, any cause, grade ≥3; patients with advanced solid tumours; dose not given).
N[C@@H]1c2ccccc2OC12CCN(c1cnc3c(N4CCCc5ncccc54)n[nH]c3n1)CC2 — result for “patients with serious TEAE”: 0% (advanced solid tumour patients; oral, 20 mg once daily).

Some of these lines once more:
COc1cc2c(Oc3ccc4[nH]c(C)cc4c3F)ccnc2cc1OCC1(N)CC1: “patients with grade 3 AST elevation” 0% (paediatric refractory sarcoma patients; 8 mg/kg).
